Results collected from several papers.
Protocols differ between the studies behind these lines. Values joined by “and” are separate records of one study, mostly repeats; a detail may differ. ± gives the spread as reported.
Chain of UniProt P33533 (whole entry, looked up): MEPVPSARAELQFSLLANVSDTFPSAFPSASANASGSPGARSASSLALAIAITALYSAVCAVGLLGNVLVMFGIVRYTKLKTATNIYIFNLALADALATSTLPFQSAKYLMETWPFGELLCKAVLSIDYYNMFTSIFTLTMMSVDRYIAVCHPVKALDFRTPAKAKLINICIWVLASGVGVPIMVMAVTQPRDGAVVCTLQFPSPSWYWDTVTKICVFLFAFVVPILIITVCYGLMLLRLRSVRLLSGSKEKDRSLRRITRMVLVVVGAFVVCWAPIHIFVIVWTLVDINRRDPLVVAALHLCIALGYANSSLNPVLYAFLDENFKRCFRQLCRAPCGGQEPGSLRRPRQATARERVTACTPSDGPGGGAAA
Chain of UniProt Q15303 (whole entry, looked up): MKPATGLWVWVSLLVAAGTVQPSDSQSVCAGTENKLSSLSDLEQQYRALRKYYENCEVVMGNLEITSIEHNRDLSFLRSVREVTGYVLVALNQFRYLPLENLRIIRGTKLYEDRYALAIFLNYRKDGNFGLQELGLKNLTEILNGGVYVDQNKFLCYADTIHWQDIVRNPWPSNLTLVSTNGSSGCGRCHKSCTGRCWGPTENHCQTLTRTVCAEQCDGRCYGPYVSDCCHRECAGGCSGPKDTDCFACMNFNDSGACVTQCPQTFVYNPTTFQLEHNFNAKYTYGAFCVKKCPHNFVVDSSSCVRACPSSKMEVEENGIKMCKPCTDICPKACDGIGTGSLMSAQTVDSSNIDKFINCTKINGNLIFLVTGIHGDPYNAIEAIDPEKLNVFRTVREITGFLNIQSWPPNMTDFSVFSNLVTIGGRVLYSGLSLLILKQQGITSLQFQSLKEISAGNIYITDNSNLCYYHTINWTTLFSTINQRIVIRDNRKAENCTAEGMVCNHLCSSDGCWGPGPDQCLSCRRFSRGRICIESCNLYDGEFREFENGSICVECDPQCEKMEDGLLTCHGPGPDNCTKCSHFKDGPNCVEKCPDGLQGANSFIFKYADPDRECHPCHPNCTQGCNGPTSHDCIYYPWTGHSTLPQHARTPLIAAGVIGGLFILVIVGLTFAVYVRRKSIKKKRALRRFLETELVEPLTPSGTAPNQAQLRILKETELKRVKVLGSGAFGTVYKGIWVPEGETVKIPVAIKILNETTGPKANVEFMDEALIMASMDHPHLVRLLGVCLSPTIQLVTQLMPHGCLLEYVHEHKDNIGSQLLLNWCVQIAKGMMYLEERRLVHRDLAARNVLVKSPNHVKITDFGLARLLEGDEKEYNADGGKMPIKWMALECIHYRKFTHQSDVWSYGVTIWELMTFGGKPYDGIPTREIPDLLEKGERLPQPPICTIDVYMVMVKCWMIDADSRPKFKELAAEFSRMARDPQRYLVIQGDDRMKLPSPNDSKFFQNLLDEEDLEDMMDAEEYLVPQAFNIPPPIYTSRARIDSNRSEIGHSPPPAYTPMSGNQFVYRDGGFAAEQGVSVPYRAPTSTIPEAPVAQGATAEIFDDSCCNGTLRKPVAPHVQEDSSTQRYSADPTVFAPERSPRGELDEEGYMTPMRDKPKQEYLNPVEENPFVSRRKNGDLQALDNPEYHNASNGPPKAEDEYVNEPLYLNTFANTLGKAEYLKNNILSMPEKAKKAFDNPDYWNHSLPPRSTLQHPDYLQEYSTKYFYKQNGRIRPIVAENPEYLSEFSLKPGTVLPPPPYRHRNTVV
Chain of UniProt P38489 (whole entry, looked up): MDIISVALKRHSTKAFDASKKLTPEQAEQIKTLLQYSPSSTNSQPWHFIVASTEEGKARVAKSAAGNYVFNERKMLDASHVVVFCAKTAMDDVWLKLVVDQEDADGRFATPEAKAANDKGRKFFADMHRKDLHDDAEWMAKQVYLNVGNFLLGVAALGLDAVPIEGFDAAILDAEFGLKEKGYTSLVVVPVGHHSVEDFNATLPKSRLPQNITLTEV
Chain of UniProt P36896 (whole entry, looked up): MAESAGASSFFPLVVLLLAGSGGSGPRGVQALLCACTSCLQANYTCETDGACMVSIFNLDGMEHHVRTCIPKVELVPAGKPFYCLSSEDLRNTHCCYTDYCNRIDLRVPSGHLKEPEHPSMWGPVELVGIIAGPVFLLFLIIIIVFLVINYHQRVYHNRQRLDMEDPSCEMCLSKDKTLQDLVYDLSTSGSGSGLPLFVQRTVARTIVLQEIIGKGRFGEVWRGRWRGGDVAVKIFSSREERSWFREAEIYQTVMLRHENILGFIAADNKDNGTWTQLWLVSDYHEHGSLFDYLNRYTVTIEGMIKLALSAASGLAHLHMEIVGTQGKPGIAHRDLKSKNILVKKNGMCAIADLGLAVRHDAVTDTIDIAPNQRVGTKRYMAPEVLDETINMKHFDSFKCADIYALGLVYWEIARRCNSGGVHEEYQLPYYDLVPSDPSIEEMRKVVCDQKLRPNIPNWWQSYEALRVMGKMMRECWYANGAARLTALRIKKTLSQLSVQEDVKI
Chain of UniProt P10721 (whole entry, unmodified, looked up): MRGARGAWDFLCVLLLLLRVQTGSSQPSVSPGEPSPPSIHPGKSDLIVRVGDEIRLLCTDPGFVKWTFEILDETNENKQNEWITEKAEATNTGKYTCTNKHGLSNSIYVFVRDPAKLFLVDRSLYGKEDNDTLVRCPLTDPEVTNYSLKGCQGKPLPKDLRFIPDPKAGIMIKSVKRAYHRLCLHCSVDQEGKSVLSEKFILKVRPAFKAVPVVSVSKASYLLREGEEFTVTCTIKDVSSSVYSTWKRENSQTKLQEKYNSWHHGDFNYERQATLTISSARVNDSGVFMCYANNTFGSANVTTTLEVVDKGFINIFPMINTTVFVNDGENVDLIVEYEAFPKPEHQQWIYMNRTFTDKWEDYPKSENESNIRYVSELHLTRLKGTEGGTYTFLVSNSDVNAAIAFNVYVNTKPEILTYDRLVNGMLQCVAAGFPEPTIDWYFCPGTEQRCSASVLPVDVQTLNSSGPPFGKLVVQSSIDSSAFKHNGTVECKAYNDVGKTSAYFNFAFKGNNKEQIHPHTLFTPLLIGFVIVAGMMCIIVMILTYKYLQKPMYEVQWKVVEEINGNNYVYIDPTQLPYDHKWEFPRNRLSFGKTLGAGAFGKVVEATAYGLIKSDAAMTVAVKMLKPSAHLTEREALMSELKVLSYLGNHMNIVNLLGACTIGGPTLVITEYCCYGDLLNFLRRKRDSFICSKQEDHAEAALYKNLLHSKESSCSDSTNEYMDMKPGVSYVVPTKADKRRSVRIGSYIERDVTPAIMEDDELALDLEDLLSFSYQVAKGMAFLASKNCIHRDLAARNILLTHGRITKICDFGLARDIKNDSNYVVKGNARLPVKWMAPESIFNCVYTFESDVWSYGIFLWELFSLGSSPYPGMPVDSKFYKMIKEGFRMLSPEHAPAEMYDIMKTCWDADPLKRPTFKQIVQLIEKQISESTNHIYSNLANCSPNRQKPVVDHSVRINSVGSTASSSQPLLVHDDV
Chain of UniProt Q9H3Y6 (whole entry, looked up): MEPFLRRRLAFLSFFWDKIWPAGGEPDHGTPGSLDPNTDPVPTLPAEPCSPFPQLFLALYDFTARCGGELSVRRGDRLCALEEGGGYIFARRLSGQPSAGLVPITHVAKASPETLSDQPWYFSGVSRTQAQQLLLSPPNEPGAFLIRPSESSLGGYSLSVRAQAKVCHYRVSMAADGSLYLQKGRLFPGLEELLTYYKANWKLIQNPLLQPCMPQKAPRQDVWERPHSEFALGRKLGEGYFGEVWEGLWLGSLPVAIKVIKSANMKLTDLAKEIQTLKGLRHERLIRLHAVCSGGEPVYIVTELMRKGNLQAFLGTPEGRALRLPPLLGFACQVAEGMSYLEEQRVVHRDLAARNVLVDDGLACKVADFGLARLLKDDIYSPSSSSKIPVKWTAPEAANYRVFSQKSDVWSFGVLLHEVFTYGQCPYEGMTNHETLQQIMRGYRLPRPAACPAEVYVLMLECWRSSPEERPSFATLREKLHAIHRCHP
Chain of UniProt P48426 (whole entry, looked up): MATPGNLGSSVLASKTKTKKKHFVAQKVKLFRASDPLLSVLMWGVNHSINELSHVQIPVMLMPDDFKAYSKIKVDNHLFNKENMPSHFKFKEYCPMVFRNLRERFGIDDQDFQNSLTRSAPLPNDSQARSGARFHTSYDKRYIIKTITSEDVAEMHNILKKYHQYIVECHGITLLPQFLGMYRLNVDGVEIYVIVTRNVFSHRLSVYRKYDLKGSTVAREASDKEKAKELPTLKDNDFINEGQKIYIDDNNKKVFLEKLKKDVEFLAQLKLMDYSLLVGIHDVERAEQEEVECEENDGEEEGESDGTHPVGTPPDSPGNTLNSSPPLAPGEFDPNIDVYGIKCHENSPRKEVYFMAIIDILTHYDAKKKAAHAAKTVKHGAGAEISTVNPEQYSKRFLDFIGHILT
Chain of UniProt P10144 (whole entry, looked up): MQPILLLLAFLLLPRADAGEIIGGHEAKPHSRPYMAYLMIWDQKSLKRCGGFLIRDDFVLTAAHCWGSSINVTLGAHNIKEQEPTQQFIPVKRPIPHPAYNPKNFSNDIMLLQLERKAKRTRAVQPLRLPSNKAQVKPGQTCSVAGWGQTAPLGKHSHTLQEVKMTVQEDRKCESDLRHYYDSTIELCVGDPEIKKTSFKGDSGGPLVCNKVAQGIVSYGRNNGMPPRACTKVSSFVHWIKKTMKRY
Chain of UniProt P08172 (whole entry, looked up): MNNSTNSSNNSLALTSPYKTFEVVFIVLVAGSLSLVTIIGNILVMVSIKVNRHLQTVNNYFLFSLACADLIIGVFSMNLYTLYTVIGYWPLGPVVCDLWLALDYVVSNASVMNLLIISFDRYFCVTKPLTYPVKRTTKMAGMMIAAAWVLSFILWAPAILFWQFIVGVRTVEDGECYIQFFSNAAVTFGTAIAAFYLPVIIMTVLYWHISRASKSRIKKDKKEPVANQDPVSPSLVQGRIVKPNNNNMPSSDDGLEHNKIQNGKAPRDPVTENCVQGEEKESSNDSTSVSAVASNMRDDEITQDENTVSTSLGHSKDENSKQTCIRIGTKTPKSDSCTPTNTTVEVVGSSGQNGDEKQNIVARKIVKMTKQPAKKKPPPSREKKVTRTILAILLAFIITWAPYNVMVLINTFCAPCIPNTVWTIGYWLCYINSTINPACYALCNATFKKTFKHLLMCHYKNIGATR

SMILES	target or system	test	test system	setting	how to read	endpoint	result
CCCCC[C@@H]1OC(=O)[C@@H](C)N(C)C(=O)[C@H](CCCCC)OC(=O)[C@@H](C)N(C)C(=O)[C@H](CCCCC)OC(=O)[C@@H](C)N(C)C(=O)[C@H](CCCCC)OC(=O)[C@@H](C)N(C)C1=O	ryanodine receptor 2 (Sus scrofa, UniProt A0A5G2R1W3)	single-channel gating, planar lipid bilayer	–	3 µM, pCa 7, porcine	–	open dwell time constant T2	17.6 ± 8.4 ms
C[C@H](NCc1ccc(-c2ccc(C(F)(F)F)cc2)cc1)C(N)=O	ERBB4 (Homo sapiens, UniProt Q15303)	cell-free assay, competition with immobilised ligand	–	1 µM	–	inhibition	6%
CS(C)(=O)=Nc1ccc(-c2ccc(-c3nc4cc(O[C@@H]5CO[C@H]6[C@@H]5OC[C@H]6O)[nH]c4cc3F)cc2)cc1	PIP4K2A (Homo sapiens, UniProt P48426)	enzyme activity, inhibitor	–	10 µM	–	inhibition	-3%
CCOC(=O)[C@@H]1Cc2c(cc([N+](=O)[O-])cc2[N+](=O)[O-])[C@H](O)[C@]12C(=O)Nc1ccc(Br)cc12	KIT (Homo sapiens, UniProt P10721, D816V)	binding, competition with immobilised ligand	–	0.1 µM	–	remaining binding	84%
O=C1NC(=O)c2c1c1cc(F)c[n+]3c1c1c2c2cc(O)ccc2[n]1[Ru-4]312([N]=C=S)[S+]3CC[S+]1CC[S+]2CC3 (stereo not shown)	ACVR1B (Homo sapiens, UniProt P36896)	enzyme activity	–	100 nM, human enzyme, with: 10 µM ATP	baseline: untreated	remaining activity	122%
COc1c(N2CC3CCCNC3C2)c(F)cc2c(=O)c(C(=O)OCc3ccc([N+](=O)[O-])cc3)cn(C3CC3)c12 (stereo not shown)	nfsB (Escherichia coli K-12, UniProt P38489)	substrate	–	with: NADH 100 µM	–	initial rate	0.15 ± 0.005 µM/min
Cc1cc(Nc2ccc(Cl)cc2)n2nc(C(F)(F)F)nc2n1	PFF0160c (Plasmodium falciparum, UniProt Q08210, E182D)	enzyme activity, DCIP colorimetric	–	–	baseline: E182D mutant over wild type	IC50 ratio	164
CCCC[C@H]1CNCCN1C[C@@H]1CCCN1C[C@H](CC1CCCCC1)N1CCN(CCC23CC4CC(CC(C4)C2)C3)[C@H](Cc2ccc(O)cc2)C1	Oprd1 (Rattus norvegicus, UniProt P33533)	radioligand binding	rat brain membranes	500 nM, pH 7.5, 25 °C, with: 2 nM [3H]DPDPE	–	remaining binding	90.5%
CC[C@H](C)[C@H](NC(C)=O)C(=O)N[C@@H](CCC(=O)O)C(=O)N1CCC[C@H]1C(=O)NC(CS(=O)(=O)O)P(=O)(Oc1ccccc1)c1ccccc1 (stereo partly shown)	Granzyme B (GZMB, Homo sapiens, UniProt P10144)	enzyme activity, inhibitor, FRET	–	–	–	kinact	0.00105 s⁻¹
CC(=O)N[C@@H](CC(=O)O)C(=O)N[C@@H](CCC(=O)O)C(=O)N[C@H](C(=O)N[C@@H](CC(=O)O)C(=O)Nc1ccc2c(C)cc(=O)oc2c1)C(C)C	ACHE (Homo sapiens, UniProt P22303)	–	biochemical	concentration not given	–	activity class	inactive
O=C1NC2(CC2)COc2ncc(F)cc2[C@H]2COCCN2c2ccn3ncc1c3n2	–	–	Sprague-Dawley rat, male	oral, 2.5 mg/kg/day, end of treatment, 4-week repeated-dose toxicity	–	body weight	440 ± 33.5 g
Cc1ncsc1-c1ccc([C@H](C)NC(=O)[C@@H]2C[C@@H](O)CN2C(=O)[C@@H](NC(=O)CN2CCC(CN3CCN(CCC(=O)N4CCN(c5ncc(-c6cc(NC(=O)c7ccc(F)cc7C(F)(F)F)c(N7C[C@@H](C)N(C)[C@@H](C)C7)cc6F)cn5)CC4)CC3)CC2)C(C)(C)C)cc1	WD repeat protein WDS (Spodoptera frugiperda, UniProt A0A2H1VC02)	degrader, targeted LC-MS	Sf9	concentration not given	–	protein level	38.7% and 34.5% and 41% and 38.8%
C=C(c1ccccc1)[C@H](N)P(=O)(O)O	PAL1 (Petroselinum crispum, UniProt P24481, Y110F)	binding, ITC	–	–	–	-TΔS	-0.5 kcal/mol
CN(C)[C@H]1C[C@@]23CC[C@@]4(O2)C(=CC[C@]2(C)[C@@H](c5ccc6ccncc6c5)CC[C@H]24)C=C3[C@@H](O)[C@@H]1O	PNCK (Homo sapiens, UniProt Q6P2M8)	ATP probe labelling, inhibitor, KiNativ profiling	–	1 µM	–	inhibition	-0.6%
CCc1nnc(-c2c(OC)cc(-c3cnc4cc(-c5cnn(C)c5)ccn34)cc2OC)o1	CHRM2 (Homo sapiens, UniProt P08172)	antagonist radioligand, radioligand binding	–	10 µM, SafetyScreen44 M2 mean	lower = stronger displacement	remaining binding	95.1%
CC(C)[C@H]1NC(=O)C[C@H]2/C=C/CCSSC[C@@H](NC1=O)C(=O)N[C@H](Cc1cccc3ccccc13)C(=O)NCC(=O)O2	SRMS (Homo sapiens, UniProt Q9H3Y6)	enzyme activity, inhibitor	–	10 µM	–	inhibition	-1.7%

Repeated from above:
SMILES	target or system	test	test system	setting	how to read	endpoint	result
CCCCC[C@@H]1OC(=O)[C@@H](C)N(C)C(=O)[C@H](CCCCC)OC(=O)[C@@H](C)N(C)C(=O)[C@H](CCCCC)OC(=O)[C@@H](C)N(C)C(=O)[C@H](CCCCC)OC(=O)[C@@H](C)N(C)C1=O	ryanodine receptor 2 (Sus scrofa, UniProt A0A5G2R1W3)	single-channel gating, planar lipid bilayer	–	3 µM, pCa 7, porcine	–	open dwell time constant T2	17.6 ± 8.4 ms
C[C@H](NCc1ccc(-c2ccc(C(F)(F)F)cc2)cc1)C(N)=O	ERBB4 (Homo sapiens, UniProt Q15303)	cell-free assay, competition with immobilised ligand	–	1 µM	–	inhibition	6%
